# Measured values collected from several papers.
# Numbered parts are unrelated; each lists some results of a single study. Positions count from the first letter of the parent shown.

# Study 1
# Target: Interferon regulatory factor 7, full length, phosphomimetic (IRF7, Homo sapiens, UniProt Q92985, residues 1-503, S101K/S471D/S472D/S475D/S476D/S477D/S483D/S484D/S487D)
# Technique: protein-binding microarray
# Form: double-stranded DNA, one strand shown
# Matrix: in vitro
# Concentration: 250 nM
# Setting: 60-bp whole probe
# With: salmon DNA 0.4 mg/ml
# Reference: random background probes
# Reading: higher = stronger binding
# Shared flanks, not repeated: GCCTAGCAC … GTCTTGATTCGCTTGACGCTGCTG
# Residues (chain): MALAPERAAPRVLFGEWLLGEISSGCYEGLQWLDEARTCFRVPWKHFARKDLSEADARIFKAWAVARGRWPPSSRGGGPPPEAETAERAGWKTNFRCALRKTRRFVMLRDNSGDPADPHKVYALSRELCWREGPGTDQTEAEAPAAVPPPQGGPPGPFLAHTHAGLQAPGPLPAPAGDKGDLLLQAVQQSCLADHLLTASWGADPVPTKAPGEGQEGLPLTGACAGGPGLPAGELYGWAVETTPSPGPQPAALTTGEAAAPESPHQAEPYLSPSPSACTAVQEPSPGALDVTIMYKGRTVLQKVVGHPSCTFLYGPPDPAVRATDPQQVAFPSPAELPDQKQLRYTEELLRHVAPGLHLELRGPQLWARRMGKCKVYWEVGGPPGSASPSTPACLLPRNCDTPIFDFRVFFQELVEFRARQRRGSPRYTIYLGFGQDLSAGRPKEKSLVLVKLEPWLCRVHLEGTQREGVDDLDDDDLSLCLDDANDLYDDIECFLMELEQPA
Strand,log fluorescence [z-score]
AACGGTTTCCTTTTCCTGACGTGCTAG,7.1
TTGGGTTTCCTTTCCCTTTAGTGCTAG,3.9
TCATATACACACTATAGTACTGTGCTA,0.659
GACGGACTGGGTTTCGGGCCGTGCTAG,0.595
GACGGTATCGCGTATCGGGACGTGCTA,0.0869
GACGGTATCCTTATACTGACGTGCTAG,-0.144
TCAAAGTTCATGTTCAAACTGTGCTAG,0.0238
GACAATATCGGGTTTCGAGACGTGCTA,3.46
GACGGGATCGGTATCGGGACGTGCTAG,0.277
TCATCTCTGCTTCTGTAACTGTGCTAG,0.545
TTAAATTTCAGTTTCGATTAGTGCTAG,9.3
CCAGTTTTCTTTTCATTACTGTGCTAG,4.78
GACGAACTGGGGTTTCGGGACGTGCTA,1.18
ATTTTTTAGCTTCTCAATTAGTGCTAG,0.742
GACGGACTGGGGTTTCGAGACGTGCTA,1.67
CTAGGTCTCGGTTTCGGTTAGTGCTAG,11.4
GACGATTTCAATATCGAGACGTGCTAG,0.508
GACGAAATCGGGACTGGAGACGTGCTA,-0.454

# Study 2
# Target: Prothrombin, mature alpha-thrombin (F2, Homo sapiens, UniProt P00734)
# Technique: aptamer microarray, sandwich
# Form: DNA with 2'F-ANA
# Matrix: in vitro
# Concentration: 200 nM
# Setting: whole 15-mer aptamer, many near background
# With: Cy3 exosite-II aptamer, 400 nM
# Reading: higher = stronger binding
# Strand: GGTTGGTGTGGTTGG
Modification,mean fluorescence intensity [a.u.]
2'F-ANA at 3 6 7 9 10 11 12,550
2'F-ANA at 2 4 6 11 12 13 14 15,88
2'F-ANA at 1 2 3 6 7 10 12 13 15,88
2'F-ANA at 1 2 3 4 5 9 10 11 12 13 15,52.4
2'F-ANA at 8 9 10 13 14 15,95.7
2'F-ANA at 1 3 7 11,300
2'F-ANA at 1 3 4 5 6 7 11 12,99.8
2'F-ANA at 1 4 6 8 9 10 11 13,111
2'F-ANA at 1 3 4 5 6 8 9 10 11 12 13,50.1
2'F-ANA at 1 4 5 6 10 11 12 13 14 15,49.1
2'F-ANA at 1 2 4 7 8 9 10,53.1
2'F-ANA at 1 2 4 12 15,363
2'F-ANA at 1 3 6 10 11 13,71.6
2'F-ANA at 1 8 9 10 12,78.7
2'F-ANA at 2 4 5 6 7 10 11 13 15,49.3
2'F-ANA at 1 3 5 7 8 12 14 15,52.2
2'F-ANA at 1 4 7 9 12 13 14 15,53.7
2'F-ANA at 3 9 12 13 14,616
2'F-ANA at 2 4 5 6 7 8 10 12 15,50.7
2'F-ANA at 3 7 8 9 10 15,568
2'F-ANA at 2 5 6 7 10 11 12,49.9
2'F-ANA at 1 4 5 10 12 15,47.7
2'F-ANA at 2 6 15,461
2'F-ANA at 1 2 5 6 9 10 11 14,66.9
2'F-ANA at 4 6 7 8 11 13,222

# Study 3
# Target: ABI1, truncated, D143A, DHFR fusion (Arabidopsis thaliana)
# Technique: DHFR PCA, deep sequencing
# Matrix: yeast
# Setting: methotrexate growth selection, single substitutions
# With: (+)-ABA 710 µM
# Reference: wild-type fitted maximum
# Reading: higher = stronger binding
# Starting sequence: PYL1, truncated, DHFR fusion (Arabidopsis thaliana); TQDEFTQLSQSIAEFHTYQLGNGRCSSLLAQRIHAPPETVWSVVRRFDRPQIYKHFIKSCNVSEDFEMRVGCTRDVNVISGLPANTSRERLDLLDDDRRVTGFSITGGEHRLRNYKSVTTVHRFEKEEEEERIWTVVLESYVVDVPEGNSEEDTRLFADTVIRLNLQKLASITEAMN; partner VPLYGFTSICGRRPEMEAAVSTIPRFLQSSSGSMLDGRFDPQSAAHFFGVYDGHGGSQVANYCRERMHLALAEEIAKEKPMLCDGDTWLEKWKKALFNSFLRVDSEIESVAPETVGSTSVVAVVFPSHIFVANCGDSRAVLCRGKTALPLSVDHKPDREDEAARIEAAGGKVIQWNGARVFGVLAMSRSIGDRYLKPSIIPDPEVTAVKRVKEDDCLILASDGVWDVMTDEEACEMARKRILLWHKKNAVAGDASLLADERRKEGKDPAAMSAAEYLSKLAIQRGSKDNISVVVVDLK
Variant,relative binding score [%]
L169K,1.87
E127W,96.5
V43F,94.5
V143I,67.2
R49W,75.9
T6E,114
T173S,100
I33A,69.4
Q51M,89.1
T119I,95.2
Q7V,106
H34W,92.2
L166R,0.212
D96N,99.9
E147L,96.4
E64C,100
F124A,107

# Study 4
# Target: RNA binding protein fox-1 homolog 2, RRM domain, GST-SBP tag (RBFOX2, Homo sapiens, UniProt O43251-10, residues 100-194)
# Technique: RNA Bind-n-Seq
# Form: RNA
# Matrix: in vitro
# Concentration: 365 nM
# Setting: natural RNA segment, single round, ends assumed
# Reference: no-protein control
# Reading: higher = stronger binding
# Shared flanks, not repeated: GGGAGUUCUACAGUCCGACGAUC … UGGAAUUCUCGGGUGCCAA
# Target sequence (chain): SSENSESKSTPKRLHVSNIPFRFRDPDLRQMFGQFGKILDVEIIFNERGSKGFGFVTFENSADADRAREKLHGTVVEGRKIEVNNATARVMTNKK
Strand,RBNS enrichment (R)
GAAGGCAAGCCAACCUUAGCUACAAUCCUACCUUUUGAUAAAAUGUUCCUUUUGACAAUAUACACGGAUUAUUAUUUGUACUUUGUUUUUCCAUGUGUUUUGCUUUUAUC,0.916
AACUAAUGCACACAGAAAUUUAAUAUACAGCAAUUCUUUGAAUGUUCCAGGUGUACGUAAACUAACUGAAAGUAUUAAGGACAUGCCUGUCUAUACAUGGGUUUCAUUGA,0.62
GCUGUUUCCUUAGUCUUCAUUUUAUAAAAGUUGUUGCCUUUUUAACGGAGUGUCACUUUCAACCGGCCUCCCCUACCCCUGCUGGCCGGGGAUGGAGACAUGUCAUUUGU,0.254
AUGUAAUUUCACAACACCUAAGGAUUUUUUGGUUGAUCAGGUUACUGUAGAUUUUUACUGAUUGUCCUGGAUGAAUAGACUGUGCUUUUUCUUUUUCUCUCCCUUCCUUC,1.53
CCAGGACAACUGCAAAGAAAACAAGCUGAGGUGGUUAUACUGUUGCUGUUAAAAGUUGGUAUCAGUAAGAUUUGUGUUUUGUGAUAAUCCCUAAAUCAACAUACCACUUG,0.434
UAGUAUAUAUAUCAUUUUCUGGCCUUUUAAAAUUUAUUUGAGACCUCUUGAUGAAAUGGACAUAUUAUAUAUUUCUGCCACCUGGAUUUUCCUGGAUAAUUUGAUGGAAU,0.602
UUCCAAAGGACCCGCGCACUUGGUCACUAGUCUUAGAAGAUGACACGGGGAUGGCAACCAACAGGACUGCUAACACCUGGUGGACCAUUCUGAGUCGAUAGAAGCAGUGG,0.392
ACAGGUUUUCAGAGAAUUAUCUCAAGUAAAACAAAUGAAAUUUAAUUACAAACAAUAAGAACAAGUUUUGGCAGCCAUGAUAAUAGGUCAUAUGUUGUGUUUGGUUCAAU,0.911

# Some of these lines once more (study 3):
Variant,relative binding score [%]
R49W,75.9
T6E,114
T173S,100
I33A,69.4
Q51M,89.1
